Results collected from several papers.
Values joined by “and” are separate records of one study, mostly repeats; a detail may differ. Numbers after ± are the reported error.
Cell line: HepG2

SMILES	test	conditions	how to read	IC50
CNC(=O)c1cc(Oc2ccc(NC(=O)Nc3ccc(Cl)c(C(F)(F)F)c3)cc2)ccn1	cell growth or viability, MTT	24 h		7.31 µM
Cc1nc2ccccc2nc1SCC(=O)Nc1ccc(C(=O)Nc2ccc(O)cc2)cc1	cell growth or viability, MTT			50.4 µM
COc1cc2nc(N3CCN(C(=O)OCc4ccccc4)[C@H](C(=O)NC(C)(C)C)C3)nc(N)c2cc1OC	cell viability, ATP content	24 h		70.5 µM
O=C1NN(c2ccccc2)C(c2ccccc2)=N/C1=C\c1ccc(F)cc1		concentration not given		5.59 µM
COc1ccc(NC(=O)CN2CCN(c3nc4ccccc4nc3Cl)CC2)cc1	cell growth or viability, MTT	24 h		469 µM
O=[N+]([O-])c1ccc(-n2nc(-c3cccs3)sc2=NN=Cc2ccccc2)cc1	cell growth or viability			86.6 µM
COc1cc(-c2ccc(-c3nnc(SCCCBr)o3)c(C)n2)cc(OC)c1OC	cell growth or viability, MTT			19.3 µM
Cc1ccc(NCC(=O)n2ncc3c2ncn2nc(SCCO)nc32)cc1	cell growth or viability, MTT	48 h		0.085 µM
O=C(NN=C(c1ccccc1)c1ccccc1)/C(=C/c1ccc(F)cc1)NC(=O)c1ccccc1		concentration not given		25.7 ± 1.04 µM
COc1cc(-c2ccc(-c3nnc(SCC4CCCCC4)o3)c(C)n2)cc(OC)c1OC	cell growth or viability, MTT			15.7 µM
COc1cc(/C=C/C(=O)CC(=O)/C=C/c2ccc(O)c(OC)c2)ccc1O	cell growth or viability, MTT	48 h		15.8 µg/mL
NC(N)=NC(=O)c1nc(Cl)c(N2CCCCCC2)nc1N	cell viability, ATP content	24 h		56 µM
N#Cc1c(-c2ccc(Cl)cc2)c2c(=O)[nH]c(=S)[nH]c2n(C2CCCCC2)c1=O	cell growth or viability, MTT			1.79 µM
CNC(=O)c1cc(Oc2ccc(NC(=O)Nc3ccc(Cl)c(C(F)(F)F)c3)cc2)ccn1	cell proliferation, MTT	48 h, miR-140-3p plus inhibitor		1.4 ± 0.26 µM
CC(=O)OC[C@H]1O[C@@H](N2C(=O)/C(=C/c3ccccc3)SC2=S)[C@H](OC(C)=O)[C@@H](OC(C)=O)[C@@H]1OC(C)=O	cell growth or viability, MTT	48 h		8.2 µM
O=C(CN1CCN(c2nc3ccccc3nc2Cl)CC1)Nc1ccccc1	cell growth or viability, MTT	24 h		14.6 µM
N#Cc1c(-c2ccc(Cl)cc2)c(C(N)=O)c(N)n(C2CCCCC2)c1=O	cell growth or viability, MTT			15.6 µM
COc1ccc(-c2cc(-c3ccc(Cl)cc3)c3c(=O)[nH]c(=O)[nH]c3n2)cc1	cell growth or viability, MTT	48 h		< 5 µM
O=C(O)c1cc(/N=N/c2ccc(S(=O)(=O)Nc3ccccn3)cc2)ccc1O	NF-κB activity, inhibitor, luciferase	TNF-stimulated		0.9 µM

SMILES	test	conditions	how to read	IC50
Cc1ccc(NCC(=O)n2ncc3c2ncn2nc(SCC(O)CO)nc32)cc1 (centres unmarked)	cell growth or viability, MTT	48 h		0.063 µM
CCOc1nc2c(c(-c3ccc(Cl)cc3)c(C#N)c(=O)n2C2CCCCC2)c(=O)[nH]1	cell growth or viability, MTT			8.1 µM
COc1ccc(NC(=O)CN2CCN(c3nc4ccccc4[nH]c3=O)CC2)cc1	cell viability, MTT	24 h		8.35 µM
CC1(COc2ccc(CC3SC(=O)NC3=O)cc2)CCCCC1 (centres unmarked)	oxygen consumption rate, inhibitor, Seahorse Mito Stress Test	1 h	baseline: DMSO 0.2%	50 to 100 µM
N#Cc1c(-c2ccc(Cl)cc2)c2c(=O)[nH]c(-c3ccccc3)nc2n(C2CCCCC2)c1=O	cell growth or viability, MTT			1.17 µM
COc1ccc(CNC(=O)/C(=C/c2ccc(F)cc2)NC(=O)c2ccccc2)cc1OC		concentration not given		22.4 ± 0.88 µM
COc1cc(-c2cc(-c3ccc(Cl)cc3)n(CC(=O)n3nc(C)cc3C)c(=O)c2C#N)ccc1O	cell growth or viability, MTT			21.6 µM
COc1cc(-c2ccc(C(=O)N/N=C/c3cc(C)ccc3C)c(C)n2)cc(OC)c1OC	cell growth or viability, MTT			6.51 µM
COc1cc(C2Oc3cc([C@H]4Oc5cc(O)cc(O)c5C(=O)[C@@H]4O)ccc3OC2CO)ccc1O (some centres unmarked)	mitochondrial membrane potential, high content imaging	5 h		inactive
COc1cc(-c2cc(-c3ccc(Cl)cc3)n(CN3CCCCC3)c(=O)c2C#N)ccc1O	cell growth or viability, MTT			≥ 50 µM
O=C(Nc1cccc(Cl)c1)/C(=C/c1ccc(F)cc1)NC(=O)c1ccccc1		concentration not given		23.7 ± 1.32 µM
Cc1nc2ccccc2n(CC(=O)Nc2ccc(C(=O)NNC(=O)c3ccccc3O)cc2)c1=O	cell growth or viability, MTT			14.8 µM
COc1cc(-c2ccc(C(=O)N/N=C/c3ccncc3)c(C)n2)cc(OC)c1OC	cell growth or viability, MTT			10.8 µM
Cc1ccc(NCC(=O)n2ncc3c2ncn2[nH]c(=S)nc32)cc1	cell growth or viability, MTT	48 h		0.911 µM
Cc1cccc(NC(=O)/C(=C/c2ccc(F)cc2)NC(=O)c2ccccc2)c1		concentration not given		16.5 ± 0.77 µM
Cc1nc2ccccc2n(CC(=O)Nc2ccc(C(=O)Nc3ccc(O)cc3)cc2)c1=O	cell growth or viability, MTT			14.3 µM
COc1cc(-c2cc(-c3ccc(Cl)cc3)n(CN3CCOCC3)c(=O)c2C#N)ccc1O	cell growth or viability, MTT			14.1 µM
O=C(CN1CCN(c2nc3ccccc3[nH]c2=O)CC1)Nc1ccc(F)cc1	cell viability, MTT	24 h		8.4 µM
COc1ccccc1/C=N/NC(=O)c1ccc(-c2cc(OC)c(OC)c(OC)c2)nc1C	cell growth or viability, MTT			6.55 µM

SMILES	test	conditions	how to read	IC50
CC(=NN=c1sc(-c2cccs2)nn1-c1ccc([N+](=O)[O-])cc1)c1ccccc1	cell growth or viability			72.6 µM
COc1cc(-c2ccc(C(=O)N/N=C/c3ccc(Cl)cc3)c(C)n2)cc(OC)c1OC	cell growth or viability, MTT			22.4 µM
CCCCNC(=O)c1ccc(NC(=O)CSc2nc3ccccc3nc2C)cc1	cell growth or viability, MTT			41.2 µM
COc1cc(-c2ccc(-c3nnc(SC)o3)c(C)n2)cc(OC)c1OC	cell growth or viability, MTT			13.5 µM
O=C(CN1CCN(c2nc3ccccc3nc2Cl)CC1)Nc1ccc(Cl)cc1	cell growth or viability, MTT	24 h		22.6 µM
COc1cccc2c1C(=O)c1c(O)c3c(c(O)c1C2=O)C[C@@](O)(C(=O)CO)C[C@@H]3O[C@H]1C[C@H](N)[C@H](O)[C@H](C)O1	cell growth or viability, MTT			2.78 µM
Cc1ccc(NCC(=O)n2ncc3c(=N)n(N)cnc32)cc1	cell growth or viability, MTT	48 h		0.937 µM
O=C(N/N=C/c1ccc(O)cc1)/C(=C/c1ccc(F)cc1)NC(=O)c1ccccc1		concentration not given		19.6 ± 0.33 µM
CC(C)(C)c1cc(C(C)(C)C)c(NC(=O)c2c[nH]c3ccccc3c2=O)cc1O	oxygen consumption rate, Seahorse Mito Stress Test	1 h		11.1 µM
OCCN1CCN(CC/C=C2/c3ccccc3Sc3ccc(C(F)(F)F)cc32)CC1	cell viability, ATP content	24 h		62.8 µM
Cc1ccc(C=NN=c2sc(-c3cccs3)nn2-c2ccc([N+](=O)[O-])cc2)cc1	cell growth or viability			281 µM and > 100 µM
O=C(N/N=C/c1ccccc1O)/C(=C/c1ccc(F)cc1)NC(=O)c1ccccc1		concentration not given		27.3 ± 1.29 µM
Cc1ccc(NCC(=O)n2ncc3c2ncn2nc(SCC#N)nc32)cc1	cell growth or viability, MTT	48 h		0.074 µM
O=C(CN1CCN(c2nc3ccccc3nc2Cl)CC1)Nc1ccc(F)cc1	cell growth or viability, MTT	24 h		38.6 µM
O=C(Nc1ccccc1)/C(=C/c1ccc(F)cc1)NC(=O)c1ccccc1		concentration not given		53.2 ± 1.73 µM
Cc1ccc(NC(=O)CN2CCN(c3nc4ccccc4nc3Cl)CC2)cc1	cell growth or viability, MTT	24 h		8.08 µM
Cc1nc2ccccc2nc1SCC(=O)Nc1ccc(C(=O)Nc2cccc(Cl)c2)cc1	cell growth or viability, MTT			4.2 µM
Cc1ccc(NCC(=O)n2ncc3c(=N)n(N[C@@H]4OC[C@@H](O)[C@H](O)[C@H]4O)cnc32)cc1	cell growth or viability, MTT	48 h		0.09 µM

Excerpt of the above:
SMILES	test	conditions	how to read	IC50
O=C(CN1CCN(c2nc3ccccc3nc2Cl)CC1)Nc1ccccc1	cell growth or viability, MTT	24 h		14.6 µM
NC(N)=NC(=O)c1nc(Cl)c(N2CCCCCC2)nc1N	cell viability, ATP content	24 h		56 µM
COc1cc(-c2ccc(-c3nnc(SCC4CCCCC4)o3)c(C)n2)cc(OC)c1OC	cell growth or viability, MTT			15.7 µM
